Results pooled from the literature.
Protocols differ between the studies behind these lines. ± gives the spread as reported.
Proteasome component C5/PSMB8: Proteasome component C5/PSMB8 (Homo sapiens, UniProt P20618+P28062)
UniProt P20618, sequence (whole entry, looked up): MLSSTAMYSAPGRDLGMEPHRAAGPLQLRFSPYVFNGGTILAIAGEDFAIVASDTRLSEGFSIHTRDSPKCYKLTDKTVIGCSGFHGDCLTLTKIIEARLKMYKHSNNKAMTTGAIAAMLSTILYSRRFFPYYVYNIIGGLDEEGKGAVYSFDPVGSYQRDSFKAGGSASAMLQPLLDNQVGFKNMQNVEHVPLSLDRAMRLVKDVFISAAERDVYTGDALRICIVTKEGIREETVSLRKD
UniProt P28062, sequence (whole entry, looked up): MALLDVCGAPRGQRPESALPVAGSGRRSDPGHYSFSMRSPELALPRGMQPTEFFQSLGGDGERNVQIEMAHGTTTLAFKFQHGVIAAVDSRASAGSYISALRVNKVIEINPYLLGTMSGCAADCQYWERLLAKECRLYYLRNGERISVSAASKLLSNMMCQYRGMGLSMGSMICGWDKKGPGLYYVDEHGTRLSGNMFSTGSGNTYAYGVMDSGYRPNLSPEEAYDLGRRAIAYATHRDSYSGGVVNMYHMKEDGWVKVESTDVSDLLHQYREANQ
UniProt P16234, sequence (whole entry, looked up): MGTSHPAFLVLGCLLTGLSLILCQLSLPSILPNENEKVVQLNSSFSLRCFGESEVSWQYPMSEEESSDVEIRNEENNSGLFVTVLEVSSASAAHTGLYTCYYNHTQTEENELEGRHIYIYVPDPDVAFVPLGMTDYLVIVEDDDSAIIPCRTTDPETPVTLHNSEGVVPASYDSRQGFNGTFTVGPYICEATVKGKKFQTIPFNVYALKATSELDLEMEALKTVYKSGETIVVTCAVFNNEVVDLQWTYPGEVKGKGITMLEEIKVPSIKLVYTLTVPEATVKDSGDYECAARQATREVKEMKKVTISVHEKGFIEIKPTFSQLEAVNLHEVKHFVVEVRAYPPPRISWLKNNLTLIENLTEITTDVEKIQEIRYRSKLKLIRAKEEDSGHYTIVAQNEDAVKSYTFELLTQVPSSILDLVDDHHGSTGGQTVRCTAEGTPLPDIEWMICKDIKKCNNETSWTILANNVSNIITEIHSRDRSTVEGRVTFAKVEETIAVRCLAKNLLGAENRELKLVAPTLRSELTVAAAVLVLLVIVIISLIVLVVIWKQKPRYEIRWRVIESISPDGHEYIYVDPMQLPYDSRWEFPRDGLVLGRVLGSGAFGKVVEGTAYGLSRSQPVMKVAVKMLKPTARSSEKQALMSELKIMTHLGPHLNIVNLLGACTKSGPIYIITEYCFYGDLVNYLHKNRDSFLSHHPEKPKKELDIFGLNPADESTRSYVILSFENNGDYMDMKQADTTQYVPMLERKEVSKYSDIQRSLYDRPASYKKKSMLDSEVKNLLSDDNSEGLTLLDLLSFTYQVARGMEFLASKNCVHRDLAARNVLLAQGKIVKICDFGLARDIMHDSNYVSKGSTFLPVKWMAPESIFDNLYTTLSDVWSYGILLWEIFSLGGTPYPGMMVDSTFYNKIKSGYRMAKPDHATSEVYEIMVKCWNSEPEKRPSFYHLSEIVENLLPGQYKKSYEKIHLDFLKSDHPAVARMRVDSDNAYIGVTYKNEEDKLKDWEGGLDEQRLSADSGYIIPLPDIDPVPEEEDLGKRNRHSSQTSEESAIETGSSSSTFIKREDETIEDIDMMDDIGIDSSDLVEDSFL
UniProt P35916, sequence (whole entry, looked up): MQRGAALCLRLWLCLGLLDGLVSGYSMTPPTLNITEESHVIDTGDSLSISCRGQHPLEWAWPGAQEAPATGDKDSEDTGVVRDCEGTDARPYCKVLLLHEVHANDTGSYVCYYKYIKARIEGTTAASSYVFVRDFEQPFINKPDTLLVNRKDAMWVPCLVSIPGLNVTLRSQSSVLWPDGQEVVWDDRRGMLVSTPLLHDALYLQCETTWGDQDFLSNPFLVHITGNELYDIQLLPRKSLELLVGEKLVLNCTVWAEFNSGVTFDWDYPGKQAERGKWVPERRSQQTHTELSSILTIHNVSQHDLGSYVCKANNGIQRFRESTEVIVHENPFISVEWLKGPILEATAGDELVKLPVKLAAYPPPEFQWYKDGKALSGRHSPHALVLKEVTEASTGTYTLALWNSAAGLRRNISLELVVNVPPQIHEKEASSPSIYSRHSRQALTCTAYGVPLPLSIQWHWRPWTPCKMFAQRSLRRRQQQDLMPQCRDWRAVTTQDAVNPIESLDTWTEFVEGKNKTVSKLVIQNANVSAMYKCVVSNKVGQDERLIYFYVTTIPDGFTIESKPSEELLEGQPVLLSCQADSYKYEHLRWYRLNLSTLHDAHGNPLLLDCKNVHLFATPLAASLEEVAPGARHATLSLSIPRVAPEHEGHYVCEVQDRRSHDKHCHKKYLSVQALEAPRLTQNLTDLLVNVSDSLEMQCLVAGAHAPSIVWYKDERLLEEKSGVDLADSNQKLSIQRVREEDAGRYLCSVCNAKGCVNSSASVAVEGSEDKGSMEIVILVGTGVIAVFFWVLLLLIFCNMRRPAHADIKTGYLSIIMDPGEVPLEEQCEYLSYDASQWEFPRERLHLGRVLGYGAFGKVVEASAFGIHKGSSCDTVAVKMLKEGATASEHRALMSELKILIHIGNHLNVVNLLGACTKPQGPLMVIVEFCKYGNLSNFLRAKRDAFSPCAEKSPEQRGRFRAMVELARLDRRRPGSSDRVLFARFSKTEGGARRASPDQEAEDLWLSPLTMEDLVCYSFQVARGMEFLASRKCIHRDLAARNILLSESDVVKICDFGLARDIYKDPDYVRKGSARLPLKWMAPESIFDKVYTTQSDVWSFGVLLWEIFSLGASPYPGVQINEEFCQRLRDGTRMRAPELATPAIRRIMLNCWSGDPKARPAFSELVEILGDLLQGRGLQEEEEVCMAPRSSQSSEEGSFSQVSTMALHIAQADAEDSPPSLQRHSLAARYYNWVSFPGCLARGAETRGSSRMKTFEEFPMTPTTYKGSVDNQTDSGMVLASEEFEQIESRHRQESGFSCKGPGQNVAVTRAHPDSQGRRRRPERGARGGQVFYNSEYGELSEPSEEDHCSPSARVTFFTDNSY
UniProt Q01650, sequence (whole entry, looked up): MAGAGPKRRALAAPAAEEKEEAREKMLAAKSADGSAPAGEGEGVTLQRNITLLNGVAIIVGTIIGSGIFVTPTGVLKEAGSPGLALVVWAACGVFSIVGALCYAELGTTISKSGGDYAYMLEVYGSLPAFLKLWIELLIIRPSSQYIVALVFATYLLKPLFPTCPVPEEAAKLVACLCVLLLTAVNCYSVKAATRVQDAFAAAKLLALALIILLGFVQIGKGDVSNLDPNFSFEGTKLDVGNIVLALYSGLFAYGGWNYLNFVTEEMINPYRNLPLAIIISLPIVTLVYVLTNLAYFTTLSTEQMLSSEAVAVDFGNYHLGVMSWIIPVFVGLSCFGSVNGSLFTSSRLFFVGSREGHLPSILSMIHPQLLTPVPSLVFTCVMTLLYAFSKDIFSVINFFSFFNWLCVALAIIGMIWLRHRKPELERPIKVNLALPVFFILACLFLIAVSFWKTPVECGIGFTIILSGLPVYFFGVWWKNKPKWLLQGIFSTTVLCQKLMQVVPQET
UniProt P28074, sequence (whole entry, looked up): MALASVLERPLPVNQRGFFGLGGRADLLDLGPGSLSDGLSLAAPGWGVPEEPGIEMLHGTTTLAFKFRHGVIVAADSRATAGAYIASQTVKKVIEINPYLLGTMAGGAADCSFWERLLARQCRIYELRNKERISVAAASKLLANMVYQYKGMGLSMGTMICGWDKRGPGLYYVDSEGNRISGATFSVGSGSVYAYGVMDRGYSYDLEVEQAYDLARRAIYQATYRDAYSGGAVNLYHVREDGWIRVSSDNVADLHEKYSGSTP
UniProt Q9UBF8, sequence (whole entry, looked up): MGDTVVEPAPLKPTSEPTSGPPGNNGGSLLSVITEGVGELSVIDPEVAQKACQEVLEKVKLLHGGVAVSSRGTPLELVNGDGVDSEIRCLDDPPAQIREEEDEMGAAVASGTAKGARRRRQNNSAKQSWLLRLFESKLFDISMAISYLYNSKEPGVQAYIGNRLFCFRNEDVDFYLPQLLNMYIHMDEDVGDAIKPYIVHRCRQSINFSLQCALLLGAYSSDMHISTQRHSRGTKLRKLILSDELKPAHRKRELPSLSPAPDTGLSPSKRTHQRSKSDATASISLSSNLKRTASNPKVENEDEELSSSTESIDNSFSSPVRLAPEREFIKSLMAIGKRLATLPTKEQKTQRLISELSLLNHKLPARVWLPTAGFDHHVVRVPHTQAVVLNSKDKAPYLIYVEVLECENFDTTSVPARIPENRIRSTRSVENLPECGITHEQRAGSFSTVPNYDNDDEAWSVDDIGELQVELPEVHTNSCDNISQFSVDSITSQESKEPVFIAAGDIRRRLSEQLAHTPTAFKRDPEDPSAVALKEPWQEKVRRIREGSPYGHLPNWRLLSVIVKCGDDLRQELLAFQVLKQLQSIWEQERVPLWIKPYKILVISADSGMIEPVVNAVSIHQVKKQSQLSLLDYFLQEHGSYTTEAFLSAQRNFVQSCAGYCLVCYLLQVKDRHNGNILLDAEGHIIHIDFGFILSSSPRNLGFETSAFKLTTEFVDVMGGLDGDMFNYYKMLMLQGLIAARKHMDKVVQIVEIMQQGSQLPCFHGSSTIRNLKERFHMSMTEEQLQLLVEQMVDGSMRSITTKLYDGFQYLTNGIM
UniProt P0AGE0, sequence (whole entry, looked up): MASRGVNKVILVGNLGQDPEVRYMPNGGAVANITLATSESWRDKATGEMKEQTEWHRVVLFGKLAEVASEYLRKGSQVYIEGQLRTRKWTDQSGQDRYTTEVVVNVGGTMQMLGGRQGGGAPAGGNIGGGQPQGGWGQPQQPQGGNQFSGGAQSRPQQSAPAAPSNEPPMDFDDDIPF
UniProt Q04760, sequence (whole entry, looked up): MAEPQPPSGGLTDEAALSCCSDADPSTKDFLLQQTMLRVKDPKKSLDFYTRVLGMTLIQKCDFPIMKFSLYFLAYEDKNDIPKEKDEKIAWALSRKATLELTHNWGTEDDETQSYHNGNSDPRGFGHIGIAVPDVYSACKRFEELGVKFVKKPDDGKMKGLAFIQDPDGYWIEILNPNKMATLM

| Compound | target | test | system | conditions | IC50 |
| --- | --- | --- | --- | --- | --- |
| COc1ccc(C[C@H](NC(=O)Cc2cccc(Oc3ccccc3)c2)C(=O)N[C@@H](Cc2c[nH]c3ccccc23)C(=O)NCc2ccc(C)cc2)cc1OC | Proteasome component C5/PSMB8 | inhibitor | – | – | 37 nM |
| N[C@@H](Cc1c[nH]c2cc(OCc3ccccc3)ccc12)C(=O)O | Large neutral amino acids transporter small subunit 1 (SLC7A5, Homo sapiens, UniProt Q01650) | transporter uptake, inhibitor, radiometric | – | – | > 100000 nM |
| N#C/C(=C\c1ccc(O)c(O)c1)C(=O)c1ccc(O)c(O)c1 | Single-stranded DNA-binding protein (ssb, Escherichia coli, UniProt P0AGE0) | DNA binding, fluorescence polarization | – | with: Cy5-dT15 DNA 5 nM | 1200 ± 100 nM |
| C=CC(=O)N1CCc2ccc(-n3c(=O)ccc4cnc5ccc(-c6cnn(C)c6)cc5c43)cc21 | Platelet-derived growth factor receptor alpha (PDGFRA, Homo sapiens, UniProt P16234) | enzyme activity, inhibitor | – | – | > 10000 nM |
| C=C[C@]1(C)CC[C@H]2C(=C[C@H]3OC(=O)[C@@]4(C)C(=O)CC[C@@]2(C)[C@@H]34)C1 | Saccharomyces cerevisiae alpha-glucosidase | enzyme activity, inhibitor | – | with: pNPG substrate | 991.95 ± 0.96 µg/mL |
| O=C(O)CCNC(=S)NCCCC[C@H](NC(=O)OCc1ccccc1)C(=O)Nc1ccccc1 | NAD-dependent protein deacylase sirtuin-5, mitochondrial (SIRT5, Homo sapiens, UniProt Q9NXA8) | enzyme activity, inhibitor | – | – | 5600 nM |
| Cc1ccc(NC(=O)Nc2cnn(-c3cccc(C(=O)Nc4ccnc(C)c4)c3)c2)cc1 | Mitogen-activated protein kinase 9 (MAPK9, Homo sapiens, UniProt P45984) | enzyme activity, inhibitor | – | – | 836 nM |
| COc1cc2nccc(Oc3ccc(NC(=O)NC4CC4)c(Cl)c3)c2cc1C(N)=O | Vascular endothelial growth factor receptor 3 (FLT4, Homo sapiens, UniProt P35916) | enzyme activity, inhibitor | – | – | 1.5 nM |
| C=CC(C)(C)c1cc(/C=C/C(=O)c2ccc(O)cc2)c(OC)cc1O | Prothrombin (F2, Homo sapiens, UniProt P00734) | enzyme activity, inhibitor, fluorescence | – | with preincubation | 7960 nM |
| O=C(N[C@@H](Cc1coc2ccccc12)B(O)O)[C@@H]1C[C@H]2CC[C@@H]1O2 | Proteasome component C5/PSMB8 | LMP7 enzyme activity, inhibitor | human immunoproteasome | 2 h preincubation, with: Suc-LLVY-AMC | 4.1 ± 2.4 nM |
| CC(C)C[C@@H](/C=C/S(C)(=O)=O)NC(=O)[C@H](CC(C)C)NC(=O)[C@@H](NC(=O)N[C@H](C(=O)O)C(C)C)C(C)C | Proteasome Macropain subunit MB1 (PSMB5, Homo sapiens, UniProt P28074) | active site labelling, inhibitor, probe competition gel | HEK-293T cell lysate | 1 h, 37 °C, with: activity-based probe 0.5 µM | 4200 nM |
| Cc1cc(N2CC[C@@](C#N)(C3(C)CC3)C2=O)cc(C(=O)NCc2cc(F)cc(-c3cnn(C)c3)c2)n1 | 5-hydroxytryptamine receptor 2B (HTR2B, Homo sapiens, UniProt P41595) | cell-free assay | – | – | > 10000 nM |
| Oc1ccc(/N=N/c2ccccc2)c2cccnc12 | Lactoylglutathione lyase (GLO1, Homo sapiens, UniProt Q04760) | enzyme activity, inhibitor | – | – | 8810 nM |
| CC(C)[C@@H]1NC(=O)[C@@H](NC(=O)[C@@H](N)Cc2c[nH]c3ccccc23)CSSC[C@@H](C(=O)N[C@@H](Cc2c[nH]c3ccccc23)C(N)=O)NC(=O)[C@H](CCCNC(=N)N)NC(=O)[C@H](CC(N)=O)NC(=O)[C@H]([C@@H](C)O)NC(=O)CNC(=O)[C@H](Cc2c[nH]c3ccccc23)NC(=O)[C@H](CC(=O)O)NC(=O)[C@H](CCC(N)=O)NC(=O)[C@H](Cc2c[nH]c3ccccc23)NC1=O | Complement C3 (Homo sapiens, UniProt P01024) | C3b formation, ELISA | normal human serum | with: LPS-coated plate | 940 nM |
| Cc1nc(NC(=O)N2CCCC2)sc1-c1csc(C(C)(C)C)n1 | Phosphatidylinositol 4-kinase beta (PI4KB, Homo sapiens, UniProt Q9UBF8) | enzyme activity, inhibitor | – | – | 478 nM |

For quick reference, copied from above:
| Compound | target | test | system | conditions | IC50 |
| --- | --- | --- | --- | --- | --- |
| C=C[C@]1(C)CC[C@H]2C(=C[C@H]3OC(=O)[C@@]4(C)C(=O)CC[C@@]2(C)[C@@H]34)C1 | Saccharomyces cerevisiae alpha-glucosidase | enzyme activity, inhibitor | – | with: pNPG substrate | 991.95 ± 0.96 µg/mL |
| O=C(O)CCNC(=S)NCCCC[C@H](NC(=O)OCc1ccccc1)C(=O)Nc1ccccc1 | NAD-dependent protein deacylase sirtuin-5, mitochondrial (SIRT5, Homo sapiens, UniProt Q9NXA8) | enzyme activity, inhibitor | – | – | 5600 nM |
